# Results pooled from the literature.
# Each line is one published result; not all experiments were run side by side. Numbers after ± are the reported error.
Structure (SMILES),test,system,conditions,pKa
CCCCC1=NC2(CCCC2)C(=O)N1Cc1ccc(-c2ccccc2S(=O)(=O)Nc2noc(C)c2C)c(COCC)c1,,,acidic,5.31
Cc1ccc2ccc(C#N)c(O)c2n1,capillary electrophoresis,,,7.1
O=C(O)CNC(=O)c1ncc(-c2ccc(Cl)cc2)cc1O,,,second acidic centre,7.4
Cc1ccccc1CN1C(=O)C2=C(CCN(Cc3ccccc3)C2)N2CCN=C12,potentiometric titration,water,first of two pKa,6.76
C=C(F)C(=O)N1CCN(c2nc(OC[C@@H]3CCCN3C)nc3c2CCN(c2cccc4cccc(Cl)c24)C3)C[C@@H]1CC#N,potentiometric,,first basic pKa,3.33
CCCCCCCCN(C)C,,,extrapolated from shorter analogues,10
O=c1[nH]ncn1-c1ccc(N2CCN(c3ccc(OCC4COC(Cn5cncn5)(c5ccc(Cl)cc5Cl)O4)cc3)CC2)cc1 (stereo not drawn),,,,2.91
COc1cc(O)c2nc(C)ccc2c1,capillary electrophoresis,,,9.4
CO[C@@H]1[C@H](O)[C@@H](CO)O[C@H]1n1c([N+](=O)[O-])nc2c(=O)[nH]c(N)nc21,"UV absorption, measured: N1 deprotonation",water,25 °C,8.33
COc1cc(NC(=O)c2ccc3cc(C(=N)N)ccc3c2)cc(OC(C)C)c1,,,,10.8
CC(C)(C)N1Cc2cccc(n2)CN(C(C)(C)C)Cc2cccc(n2)C1,,0.1 M NaCl,"25 °C, H2L2+ deprotonation",7.71
CCOc1ccc2nc(S(N)(=O)=O)sc2c1,,,sulfonamide group,7.82
O=C(NCCN1CCCC1)c1cc(-c2ccc(CN3CCOCC3)cc2)nc2ccc(F)cc12,potentiometric titration,water with 10% DMSO,first pKa,8.71 ± 0.11
O=C(O)c1ccc(C(=O)Nc2cc(C3CC3)n[nH]2)cc1,,,,2.79
N[C@@H]1C[C@]1(F)c1ccc(C(F)(F)F)cc1 (relative stereo),titration,,"21 °C, with: 0.1 M KNO3",7
CCCCCCCCCCCCCCN(C)C,extrapolated from shorter analogues,,,10
O=C(O)CNC(=O)c1ncc(-c2cccc(Cl)c2)cc1O,,,second acidic centre,7.3
N[C@@H](CC(=O)O)C(=O)OC(C(=O)O)c1cc2c(cc1[N+](=O)[O-])OCO2 (mixture of isomers),"pH-rate profile of hydrolysis, measured: benzylic carboxylic acid","aqueous buffer, 12.5% DMSO-d6",,5.8 to 7
CCCCCCCCCCCCCCN,,,extrapolated from shorter analogues,10.6
NCCOCC(=O)N1CCC[C@H](C(=O)NCc2nc(-c3ccc(C(F)(F)F)cc3)cs2)C1,potentiometric titration,,,9.8
O=C(Nc1ccc(S(=O)(=O)Nc2ncccn2)cc1)c1c(Cl)cccc1Cl,,,,5.66
CN1CCC(COc2cnc(-c3cccc(Cn4nc(-c5cccc(C#N)c5)ccc4=O)c3)nc2)CC1,,,pKa 1,9.5
CN(C)c1cc(-c2ccncc2)c(-c2cccc3ccccc23)nn1,,,,< 3.5
O=C(Nc1cc(C2CCCCC2)[nH]n1)c1ccc(Br)cc1,,,,4.35
C=CCOc1cccc(C(=O)O)c1,UV-metric,,"25 °C, aqueous extrapolated",3.9
O=C1c2c(O)cc(O)cc2O[C@H](c2cc(O)c(O)c(O)c2)[C@H]1O,UV-Vis spectroscopy,,,7 to 8
CCn1c(SCC(=O)Nc2cccc(OC)c2)nnc1-c1ccncc1,,,,3.1
COCCc1ccc(OCC(O)CNC(C)C)cc1 (stereo not drawn),n-hexane/buffer partitioning,aqueous,pH 6,9.58 ± 0.05
CCOc1ccc(C(C)=O)cc1Cc1c(O)nc(N)nc1O,,,,7.23
O=C(O)c1c(O)c(-c2ccccc2)nc2ccccc12,,,second acidic centre,9.5
CCc1nnc(NS(=O)(=O)c2ccc(NC(=O)c3ccc(F)cc3)cc2)s1,,,,4.72
CCCC[P+](/C=C(/c1ccccc1)c1cc(Cl)ccc1O)(CCCC)CCCC,capillary electrophoresis,,20 °C,8.56
CCCCCCCCCCCCCCCCNC,extrapolated from shorter analogues,,,10.8
NC(=O)c1ccc(NCCCN2CCOCC2)c([N+](=O)[O-])c1,,,,6.91
O=C(O)CNC(=O)c1nc(Cl)c2ccccc2c1O,,,second acidic centre,6.8
N#Cc1ccc([C@H]2CCc3cncn32)c(F)c1,,,,6.9
